Assay results pooled from the literature.
Protocols differ between the studies behind these lines. Positions count from the first letter of the parent shown.
GST-Dig1 213-452: GST-Dig1 213-452 (Saccharomyces cerevisiae)
Homeobox-leucine zipper protein: Homeobox-leucine zipper protein 1-308 (Manihot esculenta, UniProt A0A2C9UVS0)
P1: KSS1 (Saccharomyces cerevisiae); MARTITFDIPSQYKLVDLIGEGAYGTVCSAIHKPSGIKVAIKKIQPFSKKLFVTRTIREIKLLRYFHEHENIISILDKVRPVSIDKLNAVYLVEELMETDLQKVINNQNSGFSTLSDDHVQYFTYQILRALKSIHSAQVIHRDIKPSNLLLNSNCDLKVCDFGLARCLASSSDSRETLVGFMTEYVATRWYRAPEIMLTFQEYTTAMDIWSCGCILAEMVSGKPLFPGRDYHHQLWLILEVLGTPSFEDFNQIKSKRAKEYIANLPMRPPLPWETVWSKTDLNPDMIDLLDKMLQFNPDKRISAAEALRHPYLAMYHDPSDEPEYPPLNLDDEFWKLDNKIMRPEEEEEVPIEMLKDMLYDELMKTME
P2: COPA (Homo sapiens); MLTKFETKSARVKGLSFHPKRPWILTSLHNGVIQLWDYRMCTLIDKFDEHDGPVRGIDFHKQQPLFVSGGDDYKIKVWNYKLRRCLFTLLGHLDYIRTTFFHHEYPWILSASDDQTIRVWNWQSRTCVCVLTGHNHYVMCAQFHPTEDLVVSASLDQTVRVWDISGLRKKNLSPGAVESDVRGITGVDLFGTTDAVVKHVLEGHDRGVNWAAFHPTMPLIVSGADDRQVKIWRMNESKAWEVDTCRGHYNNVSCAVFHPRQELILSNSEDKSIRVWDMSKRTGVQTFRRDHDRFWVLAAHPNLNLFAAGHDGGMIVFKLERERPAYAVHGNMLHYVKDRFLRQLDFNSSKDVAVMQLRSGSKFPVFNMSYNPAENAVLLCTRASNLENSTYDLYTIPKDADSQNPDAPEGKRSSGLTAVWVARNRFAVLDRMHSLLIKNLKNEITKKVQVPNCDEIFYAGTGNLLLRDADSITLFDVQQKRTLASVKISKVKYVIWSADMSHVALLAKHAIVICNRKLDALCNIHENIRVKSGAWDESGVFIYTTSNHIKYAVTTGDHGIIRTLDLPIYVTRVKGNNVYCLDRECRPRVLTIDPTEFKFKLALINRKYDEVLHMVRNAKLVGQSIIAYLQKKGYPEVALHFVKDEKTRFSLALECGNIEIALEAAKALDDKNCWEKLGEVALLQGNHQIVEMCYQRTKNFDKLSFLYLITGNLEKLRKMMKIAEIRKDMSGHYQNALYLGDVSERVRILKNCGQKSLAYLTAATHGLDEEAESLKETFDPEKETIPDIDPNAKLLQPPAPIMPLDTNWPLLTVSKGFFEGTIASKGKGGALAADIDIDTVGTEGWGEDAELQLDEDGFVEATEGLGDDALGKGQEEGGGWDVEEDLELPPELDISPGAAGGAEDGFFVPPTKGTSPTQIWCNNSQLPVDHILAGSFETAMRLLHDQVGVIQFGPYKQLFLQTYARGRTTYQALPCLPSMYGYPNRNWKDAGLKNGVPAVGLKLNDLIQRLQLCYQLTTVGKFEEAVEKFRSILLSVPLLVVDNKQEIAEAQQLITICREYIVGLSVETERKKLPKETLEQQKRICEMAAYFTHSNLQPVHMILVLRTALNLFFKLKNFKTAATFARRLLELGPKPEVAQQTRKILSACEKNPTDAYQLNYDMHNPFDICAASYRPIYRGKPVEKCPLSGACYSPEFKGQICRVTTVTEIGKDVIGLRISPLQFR
P3: FUS3 (Saccharomyces cerevisiae); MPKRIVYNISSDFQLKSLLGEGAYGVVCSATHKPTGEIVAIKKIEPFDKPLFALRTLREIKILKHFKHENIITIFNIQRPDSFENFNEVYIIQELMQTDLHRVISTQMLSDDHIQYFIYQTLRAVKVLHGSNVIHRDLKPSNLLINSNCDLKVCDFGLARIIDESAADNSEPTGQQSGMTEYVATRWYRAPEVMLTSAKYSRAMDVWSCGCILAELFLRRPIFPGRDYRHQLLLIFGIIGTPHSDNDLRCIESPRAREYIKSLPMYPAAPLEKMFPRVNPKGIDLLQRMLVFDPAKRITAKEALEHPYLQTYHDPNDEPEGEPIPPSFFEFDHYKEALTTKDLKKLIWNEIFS
UniProt Q04207, sequence (whole entry, looked up): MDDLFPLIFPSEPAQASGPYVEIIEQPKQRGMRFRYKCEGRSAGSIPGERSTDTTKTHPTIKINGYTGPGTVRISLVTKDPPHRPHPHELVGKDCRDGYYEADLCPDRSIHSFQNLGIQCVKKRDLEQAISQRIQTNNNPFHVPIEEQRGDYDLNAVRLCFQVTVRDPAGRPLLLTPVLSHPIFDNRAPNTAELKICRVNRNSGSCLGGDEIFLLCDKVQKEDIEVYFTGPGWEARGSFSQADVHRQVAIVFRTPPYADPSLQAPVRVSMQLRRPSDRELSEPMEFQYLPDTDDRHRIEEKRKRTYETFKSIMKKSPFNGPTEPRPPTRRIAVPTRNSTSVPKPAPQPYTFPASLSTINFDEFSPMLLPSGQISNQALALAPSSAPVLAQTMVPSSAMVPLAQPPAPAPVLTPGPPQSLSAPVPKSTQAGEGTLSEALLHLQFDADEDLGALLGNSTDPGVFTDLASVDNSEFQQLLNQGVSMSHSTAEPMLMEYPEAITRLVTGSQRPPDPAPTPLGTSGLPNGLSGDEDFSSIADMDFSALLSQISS

| Molecule | tested on | test | test system | scale | quantity | value |
| --- | --- | --- | --- | --- | --- | --- |
| CAGACTGGGAAGTTCCAGTGTC (dsDNA) | Rela 19-304 (Mus musculus, UniProt Q04207) | EMSA | double-stranded DNA, one strand shown | – | Kd | 167 nM |
| P1 D318A D321A E322A | GST-Dig1 213-452 | GST pull-down | – | reference: wild type protein, higher = more binding | relative binding | 48% |
| ATTAATAATAAATTACATAAATTAATTATTATTAATGGACTTGCTAAAAATTTAA (dsDNA) | Homeobox-leucine zipper protein | EMSA | double-stranded DNA, one strand shown | – | binding | binds |
| P2 E241K | SURF4 (Homo sapiens) | co-IP, immunoblot | HEK293T | reference: unchanged protein, higher = more SURF4 bound | relative binding | 0.3 |
| GCTTGCTTAAGGCTTAGGCTAATTATTAAGAAATCACAATCTTTGCTGGCT (dsDNA) | Homeobox-leucine zipper protein | EMSA | double-stranded DNA, one strand shown | – | binding | binds |
| P3 D314A D317A E318A | GST-Dig1 213-452 | GST pull-down | – | reference: wild type protein, higher = more binding | relative binding | 125% |
